Assay results collected from several papers.
Compare with care: the assays were run in different laboratories. Several values in a cell are separate wells, animals, samples, runs or records. ± gives the spread as reported.
Alpha-amylase: Alpha-amylase (Bos taurus, UniProt Q3MHH8)
HRH1: Histamine H1 receptor (HRH1, Homo sapiens, UniProt P35367)
Sequence of UniProt P35367 (whole entry, looked up): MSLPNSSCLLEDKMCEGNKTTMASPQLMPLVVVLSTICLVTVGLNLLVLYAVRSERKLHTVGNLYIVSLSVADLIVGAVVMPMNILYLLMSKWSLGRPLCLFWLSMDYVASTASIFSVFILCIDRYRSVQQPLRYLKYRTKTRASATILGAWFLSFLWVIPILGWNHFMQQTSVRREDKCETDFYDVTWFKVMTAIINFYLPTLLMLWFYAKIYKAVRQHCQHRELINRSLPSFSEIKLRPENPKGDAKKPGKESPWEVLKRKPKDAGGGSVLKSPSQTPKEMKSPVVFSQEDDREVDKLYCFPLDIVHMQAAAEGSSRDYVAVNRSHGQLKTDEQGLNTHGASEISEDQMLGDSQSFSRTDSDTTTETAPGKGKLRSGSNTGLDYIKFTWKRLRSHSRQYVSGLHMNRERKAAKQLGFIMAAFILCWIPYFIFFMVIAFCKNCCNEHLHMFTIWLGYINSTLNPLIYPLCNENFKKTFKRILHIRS
FFAR4: Free fatty acid receptor 4 (FFAR4, Homo sapiens, UniProt Q5NUL3)
Sequence of UniProt Q5NUL3 (whole entry, looked up): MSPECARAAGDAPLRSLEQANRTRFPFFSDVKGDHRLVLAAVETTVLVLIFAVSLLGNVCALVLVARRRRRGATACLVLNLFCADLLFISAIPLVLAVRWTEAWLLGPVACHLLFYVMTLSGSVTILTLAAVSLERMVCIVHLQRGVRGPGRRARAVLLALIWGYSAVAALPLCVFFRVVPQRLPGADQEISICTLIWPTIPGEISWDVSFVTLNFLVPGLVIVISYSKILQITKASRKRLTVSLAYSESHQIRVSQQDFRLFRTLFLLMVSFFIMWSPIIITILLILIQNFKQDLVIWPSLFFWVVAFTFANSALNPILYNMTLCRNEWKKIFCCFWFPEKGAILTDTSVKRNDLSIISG
USP51: Ubiquitin carboxyl-terminal hydrolase 51 (USP51, Homo sapiens, UniProt Q70EK9)
Sequence of UniProt Q70EK9 (whole entry, looked up): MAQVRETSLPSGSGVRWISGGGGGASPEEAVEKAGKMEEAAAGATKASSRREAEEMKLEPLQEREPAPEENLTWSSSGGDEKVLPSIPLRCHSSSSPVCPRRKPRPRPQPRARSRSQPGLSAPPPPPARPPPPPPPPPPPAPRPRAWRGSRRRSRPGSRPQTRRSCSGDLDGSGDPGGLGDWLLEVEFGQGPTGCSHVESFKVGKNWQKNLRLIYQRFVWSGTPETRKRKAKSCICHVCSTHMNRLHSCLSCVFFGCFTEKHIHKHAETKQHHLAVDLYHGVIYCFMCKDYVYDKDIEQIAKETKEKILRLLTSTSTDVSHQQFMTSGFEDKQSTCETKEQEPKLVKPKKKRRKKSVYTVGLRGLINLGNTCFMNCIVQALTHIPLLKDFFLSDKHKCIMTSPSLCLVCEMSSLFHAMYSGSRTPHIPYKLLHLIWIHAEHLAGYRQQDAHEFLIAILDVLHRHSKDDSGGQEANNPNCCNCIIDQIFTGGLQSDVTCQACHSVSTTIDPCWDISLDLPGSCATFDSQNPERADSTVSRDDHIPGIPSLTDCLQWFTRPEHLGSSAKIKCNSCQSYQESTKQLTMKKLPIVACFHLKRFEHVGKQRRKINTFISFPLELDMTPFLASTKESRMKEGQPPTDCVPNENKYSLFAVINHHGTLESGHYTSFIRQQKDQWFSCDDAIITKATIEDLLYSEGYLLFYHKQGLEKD
Trypanothione synthetase: Trypanothione synthetase (Trypanosoma brucei brucei, UniProt Q8IEX1)
Sequence of UniProt P05164 (whole entry, looked up): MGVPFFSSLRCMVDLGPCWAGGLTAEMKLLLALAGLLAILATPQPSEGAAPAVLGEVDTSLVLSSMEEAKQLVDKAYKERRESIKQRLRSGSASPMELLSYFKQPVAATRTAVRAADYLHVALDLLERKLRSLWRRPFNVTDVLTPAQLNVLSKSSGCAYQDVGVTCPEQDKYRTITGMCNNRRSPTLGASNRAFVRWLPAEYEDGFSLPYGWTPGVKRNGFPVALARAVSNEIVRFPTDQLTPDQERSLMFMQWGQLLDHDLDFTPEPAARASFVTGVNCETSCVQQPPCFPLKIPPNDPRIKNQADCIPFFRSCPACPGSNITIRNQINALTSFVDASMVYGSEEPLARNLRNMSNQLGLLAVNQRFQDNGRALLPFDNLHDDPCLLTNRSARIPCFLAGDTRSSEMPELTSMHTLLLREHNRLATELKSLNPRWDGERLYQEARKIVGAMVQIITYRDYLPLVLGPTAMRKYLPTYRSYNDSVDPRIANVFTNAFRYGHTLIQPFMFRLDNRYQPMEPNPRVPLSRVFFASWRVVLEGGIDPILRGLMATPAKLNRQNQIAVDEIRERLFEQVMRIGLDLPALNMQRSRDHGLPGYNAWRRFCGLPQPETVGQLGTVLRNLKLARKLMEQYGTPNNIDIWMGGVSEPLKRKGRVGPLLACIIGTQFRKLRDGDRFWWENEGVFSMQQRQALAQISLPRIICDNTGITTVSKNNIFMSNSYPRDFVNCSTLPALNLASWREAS
Sequence of UniProt Q8IWT6 (whole entry, unmodified, looked up): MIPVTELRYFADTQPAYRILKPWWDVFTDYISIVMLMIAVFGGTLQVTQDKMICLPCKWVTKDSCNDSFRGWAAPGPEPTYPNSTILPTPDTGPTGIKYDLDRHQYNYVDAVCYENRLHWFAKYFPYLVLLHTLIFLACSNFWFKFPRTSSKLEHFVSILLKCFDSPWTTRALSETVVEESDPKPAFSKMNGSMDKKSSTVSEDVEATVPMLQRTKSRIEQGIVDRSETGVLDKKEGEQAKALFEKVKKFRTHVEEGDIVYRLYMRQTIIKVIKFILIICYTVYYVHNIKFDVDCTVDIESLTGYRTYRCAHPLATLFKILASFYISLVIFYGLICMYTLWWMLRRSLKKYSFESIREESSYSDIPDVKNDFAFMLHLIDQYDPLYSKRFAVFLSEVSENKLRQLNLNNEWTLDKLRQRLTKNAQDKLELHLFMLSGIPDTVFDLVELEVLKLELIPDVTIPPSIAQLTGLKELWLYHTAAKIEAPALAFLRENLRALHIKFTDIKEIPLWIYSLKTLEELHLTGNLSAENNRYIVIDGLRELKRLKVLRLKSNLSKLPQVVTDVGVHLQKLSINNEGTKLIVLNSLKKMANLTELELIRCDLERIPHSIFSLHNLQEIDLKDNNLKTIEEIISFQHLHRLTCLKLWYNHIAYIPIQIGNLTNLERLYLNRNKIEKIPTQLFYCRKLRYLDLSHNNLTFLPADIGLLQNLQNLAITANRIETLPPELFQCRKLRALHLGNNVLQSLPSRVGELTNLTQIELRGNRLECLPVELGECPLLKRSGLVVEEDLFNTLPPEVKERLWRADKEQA
Sequence of UniProt P61073 (whole entry, looked up): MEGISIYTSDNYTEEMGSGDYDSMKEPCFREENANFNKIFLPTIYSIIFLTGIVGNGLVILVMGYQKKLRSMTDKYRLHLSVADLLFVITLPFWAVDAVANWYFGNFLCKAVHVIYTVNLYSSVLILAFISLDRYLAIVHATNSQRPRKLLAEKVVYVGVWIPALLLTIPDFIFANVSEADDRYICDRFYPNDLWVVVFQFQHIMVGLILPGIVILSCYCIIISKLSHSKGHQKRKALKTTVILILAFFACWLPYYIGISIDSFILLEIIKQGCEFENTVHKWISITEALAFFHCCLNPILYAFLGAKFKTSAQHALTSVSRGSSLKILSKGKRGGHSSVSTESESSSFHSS
Sequence of UniProt P51813 (whole entry, looked up): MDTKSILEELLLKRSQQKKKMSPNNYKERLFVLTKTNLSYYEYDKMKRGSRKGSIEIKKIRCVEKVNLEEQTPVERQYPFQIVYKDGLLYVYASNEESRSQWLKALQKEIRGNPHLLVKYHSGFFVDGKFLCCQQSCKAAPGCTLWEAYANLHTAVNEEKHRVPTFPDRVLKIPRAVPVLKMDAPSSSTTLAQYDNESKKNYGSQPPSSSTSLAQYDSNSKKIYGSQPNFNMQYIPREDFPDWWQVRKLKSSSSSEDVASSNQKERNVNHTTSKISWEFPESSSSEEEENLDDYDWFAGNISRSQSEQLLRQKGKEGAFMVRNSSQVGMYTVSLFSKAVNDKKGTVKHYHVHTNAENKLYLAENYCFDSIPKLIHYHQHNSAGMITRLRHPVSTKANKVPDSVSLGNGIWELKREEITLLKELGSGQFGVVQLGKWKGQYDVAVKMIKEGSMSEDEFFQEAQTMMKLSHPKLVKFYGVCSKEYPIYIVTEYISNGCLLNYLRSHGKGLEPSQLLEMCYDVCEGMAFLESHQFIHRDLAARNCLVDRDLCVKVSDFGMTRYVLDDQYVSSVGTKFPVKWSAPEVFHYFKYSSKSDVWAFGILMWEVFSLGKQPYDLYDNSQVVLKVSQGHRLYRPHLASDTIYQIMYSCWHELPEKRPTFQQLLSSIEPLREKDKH
Sequence of UniProt P48546 (whole entry, looked up): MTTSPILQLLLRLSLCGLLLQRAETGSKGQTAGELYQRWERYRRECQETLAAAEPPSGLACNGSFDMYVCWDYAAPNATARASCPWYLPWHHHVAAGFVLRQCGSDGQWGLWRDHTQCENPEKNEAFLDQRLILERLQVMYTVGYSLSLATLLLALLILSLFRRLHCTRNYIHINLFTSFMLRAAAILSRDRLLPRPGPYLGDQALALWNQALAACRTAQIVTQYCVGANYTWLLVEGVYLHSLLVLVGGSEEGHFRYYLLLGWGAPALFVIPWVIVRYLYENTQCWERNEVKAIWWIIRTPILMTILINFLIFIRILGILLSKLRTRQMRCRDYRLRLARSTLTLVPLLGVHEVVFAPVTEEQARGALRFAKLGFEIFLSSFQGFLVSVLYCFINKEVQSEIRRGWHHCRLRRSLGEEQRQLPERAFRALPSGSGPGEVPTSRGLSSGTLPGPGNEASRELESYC
Sequence of UniProt P00540 (whole entry, looked up): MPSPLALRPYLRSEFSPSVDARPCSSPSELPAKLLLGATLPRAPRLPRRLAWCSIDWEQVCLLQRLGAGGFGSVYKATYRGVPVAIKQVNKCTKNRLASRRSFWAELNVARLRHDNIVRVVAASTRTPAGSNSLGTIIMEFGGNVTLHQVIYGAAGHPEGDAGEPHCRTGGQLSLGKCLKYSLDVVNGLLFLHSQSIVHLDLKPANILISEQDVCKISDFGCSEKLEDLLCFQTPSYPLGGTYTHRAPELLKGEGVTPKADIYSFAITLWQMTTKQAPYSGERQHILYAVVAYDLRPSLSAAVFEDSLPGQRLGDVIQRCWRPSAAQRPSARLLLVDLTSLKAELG

`CC1=NN(c2ccc(C)cc2)C(=O)C1=NNc1ccc(S(N)(=O)=O)cc1` has an inhibition of 24.376 ± 0.000929% (Alpha-amylase; enzyme activity, inhibitor, glucose oxidase; 10 µg/mL, together with: dextrin).
`CC[C@@]1(CC(=O)OC)CCCN2CC[C@]3(O)C(=Nc4ccccc43)[C@@H]21` has an inhibition of -17% (Neuropeptide S receptor, isoform B (NPSR1, Homo sapiens, UniProt Q6W5P4); beta-arrestin recruitment, antagonist, PathHunter chemiluminescence; 20 µM, together with: agonist at EC80).
`O=C(NO)c1ccc(CN2CCCCc3ccccc32)c(F)c1` has an inhibition of 30.6% (HRH1; radioligand binding, radioligand displacement; 10 µM).
The inhibition of `O=c1cc(NCCc2ccc(Cl)cc2)[nH]c(=O)[nH]1` is reported as 10 ± 4% (FFAR4; antagonist, β-arrestin recruitment; CHO cells; 10 µM, together with: 4 µM TUG-891).
For `CCc1oc2ccccc2c1C(=O)c1cc(Br)c(O)c(Br)c1`, the inhibition was 67.9% (SLC22A12 (Homo sapiens, UniProt Q96S37, T217A); uric acid uptake; HEK293T transfected with SLC22A12 T217A; 0.5 µM, 10 min, 37 °C, mean, together with: [14C]urate 200 µM).
`O=c1cc(-c2ccccc2)oc2cc(O)c(O)c(O)c12` has an inhibition of 75% (USP51; inhibitor; 1 µM, 1 h preincubation, together with: Ub-AMC 250 nM).
With `CC1=NN(c2cc(Cl)ccc2Cl)C(=O)C1=NNc1ccc(S(N)(=O)=O)cc1` the inhibition was 17.3% (Alpha-amylase; enzyme activity, inhibitor, glucose oxidase; 50 µg/mL, together with: dextrin).
The inhibition of `CN1CCN(CCNC(=O)CN2C(=O)Cc3c([nH]c4ccc(Br)cc34)-c3ccc(Cl)cc32)CC1` is reported as 8.1 ± 6.2% (Trypanothione synthetase; enzyme activity, inhibitor, BIOMOL Green; 30 µM).
`CC(C)(C)c1ccc(CCNc2cc(=O)[nH]c(=O)[nH]2)cc1` has an inhibition of -8 ± 12% (FFAR4; antagonist, β-arrestin recruitment; CHO cells; 10 µM).
`O=C(Nc1cccc2c(=O)cc(-c3nnn[nH]3)oc12)c1ccc(OCCCCc2ccccc2)cc1` has an inhibition of 20.2% and 18.5% and 4.59% and 15.9% and 23.9% and -6.42% (LRRC8A/LRRC8C (Homo sapiens, UniProt Q8IWT6+Q8TDW0, L134K/L136K); ion current, whole-cell patch clamp; HCT LRRC8-/- cells; 0.3 µM, -100 mV, L134K/L136K heteromers).
For `Oc1cc(O)c2c(c1)O[C@H](c1cc(O)c(O)c(O)c1)[C@H](O)C2`, the inhibition was 91% (USP51; inhibitor; 1 µM, 1 h preincubation, together with: Ub-AMC 250 nM).
With `COc1ccc(CCNc2cc(=O)[nH]c(=O)[nH]2)cc1` the inhibition was 14 ± 5% (FFAR4; antagonist, β-arrestin recruitment; CHO cells; 10 µM).
The inhibition of `NCCCCNC(=O)CN1C(=O)Cc2c([nH]c3ccc(Br)cc23)-c2ccc(Cl)cc21` is reported as 10.8 ± 2.2% (Trypanothione synthetase; enzyme activity, inhibitor, BIOMOL Green; 30 µM).
For `CC1=NN(c2cccc([N+](=O)[O-])c2)C(=O)C1=NNc1ccc(S(N)(=O)=O)cc1`, the inhibition was 8.64% (Alpha-amylase; enzyme activity, inhibitor, glucose oxidase; 100 µg/mL, together with: dextrin).
For `CC(C)c1noc2ncc(C(=O)c3ccccc3O)cc12`, the inhibition was 3.15% (HVCN1 (Homo sapiens, UniProt Q96D96); ion current, whole-cell patch-clamp; 10 µM, hHv1).
With `CCCCCCNc1cc(=O)[nH]c(=O)[nH]1` the inhibition was 11 ± 2% (FFAR4; antagonist, β-arrestin recruitment; CHO cells; 10 µM, together with: 4 µM TUG-891).
With `NC/C(=C\F)COc1cccc(Cn2c(=S)[nH]c(=O)c3[nH]cnc32)c1` the inhibition was 98.8% and 99.2% and 99.4% and 99% (Myeloperoxidase (MPO, Homo sapiens, UniProt P05164); enzyme activity; 1.667 µM).
`CC[C@@H]1[C@H](F)C(=O)N[C@@H]1COc1nccc2cc(C(N)=O)c(OC)cc12` has an inhibition of -13% (CAMKK2 (Homo sapiens, UniProt Q96RR4); ATP-site probe binding, ActivX profiling; THP-1 cell lysate; 0.04 mM, Lys1 site).
For `CCOC(=O)C[n+]1cccc(-c2nn(-c3ccccc3)cc2/C=C(\NC(=O)c2ccccc2)C(=O)NC(CC(N)=O)C(=O)O)c1.[Br-]` (centres unmarked), the inhibition was 0% and -0.37% (CXCR4 (Homo sapiens, UniProt P61073); arrestin recruitment, DiscoverX; 30 µM; relative to: control).
`CN1CCN(c2cc(-c3ccncc3)c(-c3ccc4ccccc4c3)nn2)CC1` has an inhibition of -8.5% (GIPR (Homo sapiens, UniProt P48546); antagonist, FLIPR; 10 µM).
With `CNCc1cc(-c2ccccc2F)n(S(=O)(=O)c2cccnc2)c1` the inhibition was 8% (Na+/K+-ATPase (pig); enzyme activity; cerebral cortex; 10 µM).
`CC1=NNC(=O)C1=NNc1ccc(S(N)(=O)=O)cc1` gave an inhibition of 8.6372 ± 0.000273% (Alpha-amylase; enzyme activity, inhibitor, glucose oxidase; 10 µg/mL, together with: dextrin).
`O=Nc1c(NCCCc2ccccc2)[nH]c(=O)[nH]c1=O` gave an inhibition of 15 ± 12% (FFAR4; antagonist, β-arrestin recruitment; CHO cells; 10 µM, together with: 4 µM TUG-891).
The inhibition of `Cc1nn(-c2nc3c(F)cc(F)cc3s2)c(O)c1C(c1cccc(C(F)(F)F)c1)c1c(C)nn(-c2nc3c(F)cc(F)cc3s2)c1O` is reported as 84.3% (CGAS (Homo sapiens, UniProt Q8N884); enzyme activity, inhibitor, pyrophosphatase-coupled; 200 µM, 1.5 h, together with: HT-DNA).
For `CC/C(=N\NC(=O)NCc1cccc(O)c1)c1ccc(O)c(C)c1O`, the inhibition was 0.6% (Proto-oncogene serine/threonine-protein kinase mos (MOS, Homo sapiens, UniProt P00540); kinase activity; 0.1 µM).
`CCCCCCCCNc1cc(=O)[nH]c(=O)n1C` has an inhibition of 25 ± 9% (FFAR4; antagonist, β-arrestin recruitment; CHO cells; 10 µM, together with: 4 µM TUG-891).
For `Cn1cc(-c2ccc(-c3cncc(Cl)c3N3CCC4(CCNC4=O)CC3)cc2)cn1`, “log2 fold change” read -2.03 (COLO 205; gene expression, microarray, item: VAV3 mRNA; concentration not given, 2 h; relative to: untreated cells).
With `O=c1cc(NCCc2cccc(Cl)c2)[nH]c(=O)[nH]1` the inhibition was 7 ± 5% (FFAR4; antagonist, β-arrestin recruitment; CHO cells; 10 µM, together with: 4 µM TUG-891).
`CCN1/C(=C/C(C)=O)Sc2ccc(F)cc21` gave an inhibition of 7.61% (HRH1; 10 µM).
The inhibition of `CC1=NCCNC(=O)C1=NNc1ccc(S(N)(=O)=O)cc1` is reported as 9.5969 ± 0.000227% (Alpha-amylase; enzyme activity, inhibitor, glucose oxidase; 10 µg/mL, together with: dextrin).
`[2H]c1cc(C)c(NC(=O)c2cnc(Nc3cc(N4CCCCC4)nc(C)n3)s2)c(Cl)c1` gave an inhibition of < 30% (WNK3 (Homo sapiens, UniProt Q9BYP7); 0.01 µM).
`CC1=NN(c2ccc(F)cc2)C(=O)C1=NNc1ccc(S(N)(=O)=O)cc1` gave an inhibition of 6.5259 ± 0.00019% (Alpha-amylase; enzyme activity, inhibitor, glucose oxidase; 10 µg/mL, together with: dextrin).
The inhibition of `CCCCCNc1cc(=O)[nH]c(=O)[nH]1` is reported as 17 ± 1% (FFAR4; antagonist, β-arrestin recruitment; CHO cells; 10 µM).
With `CC1=NN(c2ccccc2)C(=O)C1=NNc1ccc(S(N)(=O)=O)cc1` the inhibition was 23% (Alpha-amylase; enzyme activity, inhibitor, glucose oxidase; 100 µg/mL, together with: dextrin).
The inhibition of `[2H]c1cc(C)c(NC(=O)c2cnc(Nc3cc(N4CCC(O)CC4)nc(C)n3)s2)c(Cl)c1` is reported as > 50% (BMX (Homo sapiens, UniProt P51813); 0.001 µM).

Excerpt of the above:
`CC1=NNC(=O)C1=NNc1ccc(S(N)(=O)=O)cc1` gave an inhibition of 8.6372 ± 0.000273% (Alpha-amylase; enzyme activity, inhibitor, glucose oxidase; 10 µg/mL, together with: dextrin).
`O=Nc1c(NCCCc2ccccc2)[nH]c(=O)[nH]c1=O` gave an inhibition of 15 ± 12% (FFAR4; antagonist, β-arrestin recruitment; CHO cells; 10 µM, together with: 4 µM TUG-891).
The inhibition of `Cc1nn(-c2nc3c(F)cc(F)cc3s2)c(O)c1C(c1cccc(C(F)(F)F)c1)c1c(C)nn(-c2nc3c(F)cc(F)cc3s2)c1O` is reported as 84.3% (CGAS (Homo sapiens, UniProt Q8N884); enzyme activity, inhibitor, pyrophosphatase-coupled; 200 µM, 1.5 h, together with: HT-DNA).
For `CC/C(=N\NC(=O)NCc1cccc(O)c1)c1ccc(O)c(C)c1O`, the inhibition was 0.6% (Proto-oncogene serine/threonine-protein kinase mos (MOS, Homo sapiens, UniProt P00540); kinase activity; 0.1 µM).
`CCCCCCCCNc1cc(=O)[nH]c(=O)n1C` has an inhibition of 25 ± 9% (FFAR4; antagonist, β-arrestin recruitment; CHO cells; 10 µM, together with: 4 µM TUG-891).
For `Cn1cc(-c2ccc(-c3cncc(Cl)c3N3CCC4(CCNC4=O)CC3)cc2)cn1`, “log2 fold change” read -2.03 (COLO 205; gene expression, microarray, item: VAV3 mRNA; concentration not given, 2 h; relative to: untreated cells).
